Measured values gathered from unrelated publications.
Every numbered part comes from another study and shows a few of its results, in no order. Substitutions count along the parent as printed.

Sample 1 — technique: RNA Bind-n-Seq; molecule type: RNA; matrix: in vitro; tested at: 200 nM; notes: whole 134-nt RNA, ends assumed; with: 150 mM LiCl; reference: input library; reading: higher = stronger binding; all molecules: 7-deaza-guanosine replaces G
Target: Ras GTPase-activating protein-binding protein 1, full length (G3BP1, Homo sapiens, UniProt Q13283)
UniProt Q13283, sequence (whole entry, looked up): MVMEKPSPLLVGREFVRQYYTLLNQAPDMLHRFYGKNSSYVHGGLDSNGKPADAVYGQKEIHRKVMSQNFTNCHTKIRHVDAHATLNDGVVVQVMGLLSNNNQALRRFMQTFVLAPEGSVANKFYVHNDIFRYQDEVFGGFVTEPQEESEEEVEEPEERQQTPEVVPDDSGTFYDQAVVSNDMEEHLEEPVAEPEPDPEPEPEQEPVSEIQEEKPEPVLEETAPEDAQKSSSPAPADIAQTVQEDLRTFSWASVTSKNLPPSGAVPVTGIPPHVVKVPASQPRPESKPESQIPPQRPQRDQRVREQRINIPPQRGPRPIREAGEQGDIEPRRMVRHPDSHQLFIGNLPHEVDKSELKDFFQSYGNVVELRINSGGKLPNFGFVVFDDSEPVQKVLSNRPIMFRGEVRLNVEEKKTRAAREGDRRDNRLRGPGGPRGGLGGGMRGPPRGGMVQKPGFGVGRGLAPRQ
Sequence	log2 enrichment
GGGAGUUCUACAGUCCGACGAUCAAGUCCUGUGCUACACAUCGUAUGUACCGAAUCGGGGAAAGGGGAAAGGGGAAAGGAAAGUAUUAUGUUACGCCGUUCGGAUCUGCACUUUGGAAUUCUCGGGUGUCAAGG	0.219
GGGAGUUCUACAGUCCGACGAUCACCAUGCAUGUGGGCAUCUUUGGGAAGUGGGGCAAGGGGGGGAUAGGGAGGGGGGUAACACUUUGGGAACAGGUGGUCCCAGGUCGUUUCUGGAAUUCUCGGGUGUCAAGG	0.0794
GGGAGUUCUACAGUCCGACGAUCAGUCCUGUGCUACACAUCGUAUGUACCGAAUCGGUUUUUGGUUUUUUUGGUUUUUGGAAAGUAUUAUGUUACGCCGUUCGGAUCUGCACUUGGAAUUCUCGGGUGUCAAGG	-1.07
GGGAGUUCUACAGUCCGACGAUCCUCAAGUCCUGUGCUACACAUCGUAUGUACCGAAUCGGGGAGGGGAGGGGAGGGAAAGUAUUAUGUUACGCCGUUCGGAUCUGCACUUCCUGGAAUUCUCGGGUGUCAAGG	0.139
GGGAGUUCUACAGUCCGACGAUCCCUGUGCUACACAUCGUAUGUACCGAAUCGGAAAAAAAGGAAAAAAAGGGAAAAAAAGGGGAAAGUAUUAUGUUACGCCGUUCGGAUCUGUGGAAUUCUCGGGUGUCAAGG	-0.105
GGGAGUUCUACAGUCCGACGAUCUCCUGUGCUACACAUCGUAUGUACCGAAUCGGGUUUUUUGGGUUUUUUGGGGUUUUUUGGAAAGUAUUAUGUUACGCCGUUCGGAUCUGCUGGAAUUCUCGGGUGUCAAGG	0.862
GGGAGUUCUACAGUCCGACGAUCCAAGUCCUGUGCUACACAUCGUAUGUACCGAAUCGGGAAAAAGGGAAAGGGUGGGAAAGUAUUAUGUUACGCCGUUCGGAUCUGCACUUCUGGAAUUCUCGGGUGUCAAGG	-0.384
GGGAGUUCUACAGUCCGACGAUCCAAGUCCUGUGCUACACAUCGUAUGUACCGAAUCGGAAAAAGGUUUGGUUUUUGGAAAGUAUUAUGUUACGCCGUUCGGAUCUGCACUUCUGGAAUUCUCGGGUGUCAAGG	-1.51

Sample 2 — technique: protein-binding microarray; molecule type: double-stranded DNA, one strand shown; matrix: in vitro; tested at: not given; reading: higher = stronger binding
Target: Protein max, full length (MAX, Homo sapiens, UniProt P61244-2, residues 1-151)
Notes: k-mer, scored over probes, only values ≥0.25
Sequence	E-score
ACGCACGT	0.403
AGGCGCAT	0.283
CACATTGG	0.306
CTCCCCAA	0.289
AGCATGTG	0.475
CATGTGCC	0.476
CCAGGCGG	0.273
GGCGTGGA	0.348

Sample 3 — technique: Spec-seq; molecule type: double-stranded DNA, one strand shown; matrix: in vitro; tested at: not given; notes: whole probe, mean of replicates; reference: not given; reading: lower = stronger binding; all sequences stand within: GAGTCGTCTCGTCAGCAC … CCGTAGAGCACTCAGGTC
Target: POU domain, class 5, transcription factor 1, POU domain (Pou5f1, Mus musculus, UniProt P20263, residues 131-289)
UniProt P20263, sequence (131-289, looked up): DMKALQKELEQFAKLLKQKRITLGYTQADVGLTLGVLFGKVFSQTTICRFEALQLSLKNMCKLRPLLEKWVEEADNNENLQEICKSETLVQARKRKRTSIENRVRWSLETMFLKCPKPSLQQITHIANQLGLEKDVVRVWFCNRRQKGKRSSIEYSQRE
Sequence	relative binding energy
CAACTAAT	0.618 ln ratio
ATGCCGAC	0.791 ln ratio
ATAGCCAT	0.473 ln ratio
ATGGGCAT	0.668 ln ratio
ATATCGAT	0.488 ln ratio
GCCTTAAT	0.744 ln ratio
CGCCTAAT	0.843 ln ratio
ATGGAAAT	-0.339 ln ratio

Other studies, line by line — starting sequence: viral docking peptide; CKVKRKLFGSENI
Change	target	assay	test system	setting	scale	quantity	result
CKVKRKAFGSENI [L7A]	CCNB2, cyclin fold, Cln2 fusion (human)	yeast growth competition, sequencing	yeast	weak parent motif	reference: not given, higher = stronger binding	normalised enrichment score	0.604

For quick reference, copied from above (other studies, line by line):
Change	target	assay	test system	setting	scale	quantity	result
CKVKRKAFGSENI [L7A]	CCNB2, cyclin fold, Cln2 fusion (human)	yeast growth competition, sequencing	yeast	weak parent motif	reference: not given, higher = stronger binding	normalised enrichment score	0.604
